Measured values gathered from unrelated publications.
Protocols differ between the studies behind these lines. ± gives the spread as reported.
CYP2D6: Cytochrome P450 2D6 (CYP2D6, Homo sapiens, UniProt P10635)
Chain of UniProt P10635 (whole entry, looked up): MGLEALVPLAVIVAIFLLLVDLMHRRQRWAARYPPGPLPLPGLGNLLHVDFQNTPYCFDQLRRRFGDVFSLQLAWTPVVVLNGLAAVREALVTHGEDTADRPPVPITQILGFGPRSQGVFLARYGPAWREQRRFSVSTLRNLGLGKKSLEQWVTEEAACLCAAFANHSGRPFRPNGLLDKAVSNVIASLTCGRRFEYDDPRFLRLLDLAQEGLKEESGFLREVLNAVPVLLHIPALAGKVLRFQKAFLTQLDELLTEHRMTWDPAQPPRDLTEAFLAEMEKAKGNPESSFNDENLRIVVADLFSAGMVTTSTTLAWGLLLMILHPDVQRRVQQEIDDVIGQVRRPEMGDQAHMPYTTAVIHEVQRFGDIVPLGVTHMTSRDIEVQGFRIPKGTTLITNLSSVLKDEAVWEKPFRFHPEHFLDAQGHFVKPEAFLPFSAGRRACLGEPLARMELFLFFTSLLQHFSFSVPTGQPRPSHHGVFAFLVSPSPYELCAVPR
Chain of UniProt P00729 (whole entry, looked up): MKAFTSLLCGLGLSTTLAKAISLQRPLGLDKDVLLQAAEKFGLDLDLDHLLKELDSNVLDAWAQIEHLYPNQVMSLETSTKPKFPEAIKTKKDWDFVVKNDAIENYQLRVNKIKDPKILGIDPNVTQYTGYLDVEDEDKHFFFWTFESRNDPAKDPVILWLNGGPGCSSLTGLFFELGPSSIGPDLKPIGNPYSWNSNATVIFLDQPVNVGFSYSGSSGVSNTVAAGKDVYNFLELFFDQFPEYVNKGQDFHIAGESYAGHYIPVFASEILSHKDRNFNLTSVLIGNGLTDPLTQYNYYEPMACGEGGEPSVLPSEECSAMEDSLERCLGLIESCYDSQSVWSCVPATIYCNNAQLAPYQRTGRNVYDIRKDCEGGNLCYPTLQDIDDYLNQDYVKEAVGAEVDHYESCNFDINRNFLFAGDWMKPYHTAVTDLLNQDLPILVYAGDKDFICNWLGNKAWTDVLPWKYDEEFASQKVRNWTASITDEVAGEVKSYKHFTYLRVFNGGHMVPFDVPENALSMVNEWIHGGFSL
Chain of UniProt P51589 (whole entry, looked up): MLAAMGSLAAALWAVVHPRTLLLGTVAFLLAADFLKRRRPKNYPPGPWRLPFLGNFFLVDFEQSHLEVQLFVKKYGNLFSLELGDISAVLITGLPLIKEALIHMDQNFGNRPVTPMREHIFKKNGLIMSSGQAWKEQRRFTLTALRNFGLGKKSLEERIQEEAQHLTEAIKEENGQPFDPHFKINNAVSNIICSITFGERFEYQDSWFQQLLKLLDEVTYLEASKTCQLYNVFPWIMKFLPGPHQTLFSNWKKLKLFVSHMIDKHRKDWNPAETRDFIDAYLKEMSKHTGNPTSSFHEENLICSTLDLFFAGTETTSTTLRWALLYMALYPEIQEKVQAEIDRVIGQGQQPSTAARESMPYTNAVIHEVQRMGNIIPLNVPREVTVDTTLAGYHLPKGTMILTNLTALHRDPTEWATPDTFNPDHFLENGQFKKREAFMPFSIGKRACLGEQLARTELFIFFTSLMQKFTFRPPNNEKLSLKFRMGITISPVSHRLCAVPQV
Chain of UniProt P00760 (whole entry, looked up): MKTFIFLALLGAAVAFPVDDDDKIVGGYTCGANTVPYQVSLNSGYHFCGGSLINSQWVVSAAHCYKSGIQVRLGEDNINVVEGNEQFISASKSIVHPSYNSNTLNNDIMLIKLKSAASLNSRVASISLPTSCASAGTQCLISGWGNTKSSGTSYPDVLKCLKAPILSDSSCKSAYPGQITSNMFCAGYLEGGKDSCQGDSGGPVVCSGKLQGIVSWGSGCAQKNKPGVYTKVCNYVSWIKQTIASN
Chain of UniProt P20813 (whole entry, looked up): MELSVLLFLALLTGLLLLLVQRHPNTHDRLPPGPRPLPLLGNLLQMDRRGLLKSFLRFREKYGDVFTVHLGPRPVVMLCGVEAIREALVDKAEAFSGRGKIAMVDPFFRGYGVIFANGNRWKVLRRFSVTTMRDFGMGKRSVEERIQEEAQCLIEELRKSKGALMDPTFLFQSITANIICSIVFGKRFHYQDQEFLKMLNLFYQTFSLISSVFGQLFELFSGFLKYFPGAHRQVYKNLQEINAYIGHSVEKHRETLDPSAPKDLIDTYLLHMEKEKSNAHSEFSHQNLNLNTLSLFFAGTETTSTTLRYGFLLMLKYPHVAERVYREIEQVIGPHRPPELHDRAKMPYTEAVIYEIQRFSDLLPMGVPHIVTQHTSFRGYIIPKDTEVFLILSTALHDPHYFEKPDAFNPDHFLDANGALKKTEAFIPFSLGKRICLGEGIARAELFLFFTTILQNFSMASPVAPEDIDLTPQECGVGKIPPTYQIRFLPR

CCCCCCCCCCCC(=O)C(C)C(=O)N1CCC[C@H]1C(=O)NC(C)(C)C(=O)NC(C)(C)C(=O)NC(C)(C)C(=O)N[C@](C)(CC)C(=O)NCCC(=O)N[C@@H](C)C(=O)N[C@](C)(CC)C(=O)N[C@@H](C)C(=O)N[C@@H](CC(C)C)C(=O)N[C@](C)(CC)C(=O)NCCC(=O)N[C@@H](C)C(=O)N[C@](C)(CC)C(=O)NCCC(=O)N[C@@H](C)C(=O)NC(C)(C)C(=O)NC(C)(C)C(=O)NC(C)(C)C(=O)N[C@@H](C)C(=O)N[C@@H](CC(=O)O)C(=O)O (stereo partly drawn)  remaining intact peptide (human neutrophil elastase; LC-MS; 40 µM, 60 min, pH 7.5, 37 °C; reference: 0 h): 64.7%
CC[C@H](C)[C@@H]1NC(=O)[C@H](CC(C)C)NC(=O)[C@@H](NC(=O)[C@H](CCC(N)=O)NC(=O)[C@H](CCCCN)NC(=O)[C@H](CC(N)=O)NC(=O)[C@H](Cc2ccc(O)cc2)NC(=O)[C@@H]2CCC(=O)NCC(=O)NCC(=O)NCC(=O)NCC(=O)N[C@@H](CCCNC(=N)N)C(=O)NCC(=O)N[C@@H](Cc3ccc(O)cc3)C(=O)N2)CSSC[C@@H](C(=O)O)NC(=O)[C@H](Cc2ccccc2)NC1=O  proteolytic stability (Carboxypeptidase Y (Saccharomyces cerevisiae, UniProt P00729); substrate, LC-MS; 20 h, room temperature): stable
CNC(=O)C1CCCN(C(=O)C2CC3CCC2N3C(=O)[C@@H]2C[C@@H](O)CN2C(=O)NCc2cccc(Cl)c2F)C1 (mixture of isomers)  remaining activity (CYP3A4 (human); inhibitor, time-dependent inhibition; 16.7 µM, preincubated without NADPH, together with: midazolam substrate; reference: negative control): 105%
Cc1cccc2c1C1(CCN(C(=O)c3ccc4[nH]ncc4c3)CC1)C(=O)N2CC(=O)NCC(F)(F)F  IC50 (CYP2D6; enzyme activity, inhibitor): 2.5 µM
C[C@@H](c1ccc2nccn2c1)n1nnc2ncc(-c3cn[nH]c3)nc21  IC50 (Cytochrome P450 2B6 (CYP2B6, Homo sapiens, UniProt P20813); enzyme activity, inhibitor; human, liver microsomes): > 30 µM
CC(C)C[C@H](NC(=O)[C@H](CC(C)C)NC(=O)[C@H](CCCCN)NC(=O)[C@H](Cc1ccccc1)NC(=O)[C@@H](NC(=O)[C@H](CCCNC(=N)N)NC(=O)[C@@H](N)CCCCN)C(C)C)C(=O)N[C@@H](CCCCN)C(=O)N[C@@H](CCCNC(=N)N)C(=O)N[C@@H](Cc1ccc(O)cc1)C(=O)N[C@@H](Cc1c[nH]c2ccccc12)C(=O)N[C@@H](CCCNC(=N)N)C(=O)N[C@@H](CCC(N)=O)C(=O)N[C@@H](CC(C)C)C(=O)N[C@@H](CCCCN)C(=O)N[C@@H](CCCCN)C(=O)N1CCC[C@H]1C(=O)N[C@H](C(=O)N[C@@H](CCCNC(=N)N)C(=O)NCCOCCOCC(=O)O)C(C)C  intact peptide remaining (Serine protease 1 (PRSS1, Bos taurus, UniProt P00760); HPLC; 1 mg/mL, 30 min, 37 °C, together with: enzyme to peptide 50:1): 83 to 87%
CC(=O)NCCCC[C@@H]1NC(=O)[C@H](Cc2c[nH]c3c(C)cccc23)NC(=O)[C@H]([C@@H](C)O)NC(=O)[C@H](CC(N)=O)NC(=O)[C@@H](NC(C)=O)C(C)(C)SSC(C)(C)[C@@H](C(=O)N[C@@H](Cc2ccc(OCCN)cc2)C(=O)N[C@@H](Cc2ccc3ccccc3c2)C(=O)NC2(C(=O)N[C@@H](CCC(=O)O)C(=O)N[C@@H](CC(N)=O)C(=O)N[C@@H](Cc3cccnc3)C(=O)N(C)CC(N)=O)CCOCC2)NC1=O  fraction unbound (human alpha-1-acid glycoprotein 0.14%; equilibrium dialysis; 0.1 µM): 91.5 ± 0.7%
Cc1cc(-c2ccc3ccccc3c2)nnc1NCCN1CCN(C)CC1  half-life (Cytochrome P450 2J2 (CYP2J2, Homo sapiens, UniProt P51589); substrate; recombinant enzyme; 1000 nM): > 30 min
CCN(CC)CCOc1ccc(-c2nnn(Cc3ccc(OC)cc3)c2N)cc1  IC50 (SLC22A8 (Homo sapiens, UniProt Q8TCC7); transporter uptake, inhibitor): > 100 µM
C=C(C)C(=O)NCCCCCC(=O)NCC(=O)N[C@@H](C)C(=O)N[C@@H](CC(C)C)C(=O)N[C@H](C(=O)N1CCC[C@H]1C(=O)N[C@@H](CCCNC(=N)N)C(=O)NCC(=O)N[C@@H](C)C(=O)N[C@@H](CC(=O)O)C(=O)N[C@@H](CO)C(=O)NCC(=O)N[C@@H](CO)C(=O)NCC(N)=O)[C@@H](C)O  cleavage (α-chymotrypsin; substrate, HPLC; DPBS; 200 µM, 50 min, 37 °C, together with: chymotrypsin 1.0 µM): 55%
O=C(CN1C(=O)C2(CCN(C(=O)c3cnc4[nH]ncc4c3)CC2)c2c(Cl)cccc21)NCC(F)(F)F  IC50 (CYP2D6; enzyme activity, inhibitor): 4 µM
O=C1NC2(CC2)COc2ncc(F)cc2[C@H]2COCCN2c2ccn3ncc1c3n2  lymphocyte percentage (Sprague-Dawley rat, male, blood; oral, 5 mg/kg/day, 4 weeks, end of treatment, subacute toxicity): 76.8 ± 9.7%

Some of these lines once more:
CC[C@H](C)[C@@H]1NC(=O)[C@H](CC(C)C)NC(=O)[C@@H](NC(=O)[C@H](CCC(N)=O)NC(=O)[C@H](CCCCN)NC(=O)[C@H](CC(N)=O)NC(=O)[C@H](Cc2ccc(O)cc2)NC(=O)[C@@H]2CCC(=O)NCC(=O)NCC(=O)NCC(=O)NCC(=O)N[C@@H](CCCNC(=N)N)C(=O)NCC(=O)N[C@@H](Cc3ccc(O)cc3)C(=O)N2)CSSC[C@@H](C(=O)O)NC(=O)[C@H](Cc2ccccc2)NC1=O  proteolytic stability (Carboxypeptidase Y (Saccharomyces cerevisiae, UniProt P00729); substrate, LC-MS; 20 h, room temperature): stable
